Published values collected from several papers.
Numbered parts are unrelated; each lists some results of a single study.

Set 1 — technique: protein-binding microarray; molecule type: double-stranded DNA, one strand shown; matrix: in vitro; tested at: 250 nM; notes: 60-bp whole probe; together with: salmon DNA 0.4 mg/ml; baseline: random background probes; direction: higher = stronger binding; constant ends, left off below: GCCTAGCAC … GTCTTGATTCGCTTGACGCTGCTG
Target: Interferon regulatory factor 7, full length, phosphomimetic (IRF7, Homo sapiens, UniProt Q92985, residues 1-503, S101K/S471D/S472D/S475D/S476D/S477D/S483D/S484D/S487D)
Chain of UniProt Q92985 (whole entry, unmodified, looked up): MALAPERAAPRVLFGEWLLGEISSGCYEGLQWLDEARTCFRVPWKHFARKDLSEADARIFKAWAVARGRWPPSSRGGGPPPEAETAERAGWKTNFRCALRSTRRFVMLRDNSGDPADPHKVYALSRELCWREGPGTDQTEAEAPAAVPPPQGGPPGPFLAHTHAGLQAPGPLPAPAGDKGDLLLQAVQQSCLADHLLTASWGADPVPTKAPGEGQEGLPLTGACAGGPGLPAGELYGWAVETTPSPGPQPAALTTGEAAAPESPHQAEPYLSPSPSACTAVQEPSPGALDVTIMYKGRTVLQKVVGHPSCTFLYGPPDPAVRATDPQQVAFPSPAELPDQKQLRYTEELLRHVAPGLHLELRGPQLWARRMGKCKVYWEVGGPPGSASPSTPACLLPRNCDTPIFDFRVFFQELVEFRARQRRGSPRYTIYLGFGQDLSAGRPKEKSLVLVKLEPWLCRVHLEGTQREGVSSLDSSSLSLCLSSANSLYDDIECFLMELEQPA
| Sequence | log fluorescence |
| --- | --- |
| TTAGATCTCAGTATTGATTAGTGCTAG | 0.354 z-score |
| GACGGTTTCGGCCTGGGGACGTGCTAG | 2.88 z-score |
| TTAGGACTGAGACTGGATTAGTGCTAG | -0.166 z-score |
| AAACTAGTGTTTTTCTCCTAGTGCTAG | -0.202 z-score |
| TCACGTTTACATTTTCCACTGTGCTAG | 0.804 z-score |
| GACGGACTGGGGACTGGGGTCGTGCTA | -0.583 z-score |
| GACGTACTGCTTATCCTGACGTGCTAG | 0.0384 z-score |
| CATCCAGCAGAGAGCCTCAGGTGCTAG | -0.343 z-score |
| GACGCTTTCGACTTTCGGGACGTGCTA | 2.38 z-score |
| GACGATCCCAGTCTCGAGACGTGCTAG | 0.626 z-score |
| TTAGGTCTCGGACTGGGTGAGTGCTAG | 0.176 z-score |
| TTAGGTATCGCCTTTCGGTTAGTGCTA | 1.2 z-score |
| TCATGTTTATGTCTGGGACTGTGCTAG | 0.254 z-score |
| TTAGGTACCCTACTGCTTTAGTGCTAG | -0.114 z-score |
| TTAGGAGTGGACTATCGGTTAGTGCTA | -0.755 z-score |
| GACGGTTTCGGTCTCGAGACGTGCTAG | 7.84 z-score |
| TTAGTACTGGACTATCGGTTAGTGCTA | 0.106 z-score |
| GACGAAATCGGGACTGGAGACGTGCTA | -0.454 z-score |
| TCAAAGTTCATGTTCAAACTGTGCTAG | 0.0238 z-score |
| TGAGGTTCCCTTTTCCTTTAGTGCTAG | 3.01 z-score |
| GACGGTTTGGGGACTGGGGACGTGCTA | -0.342 z-score |
| ATAGGTATCCTTATCCTTTAGTGCTAG | 0.519 z-score |
| AGCTACTGAGTGGCAACACAGTGCTAG | -1.02 z-score |
| TCATTTTTCACTATTGCACTGTGCTAG | 1.37 z-score |
| GACGGTTACGACACTGGGGACGTGCTA | -0.279 z-score |

Set 2 — technique: RNA Bind-n-Seq; molecule type: RNA; matrix: in vitro; tested at: 200 nM; notes: whole 134-nt RNA, ends assumed; together with: 150 mM LiCl; baseline: input library; direction: higher = stronger binding; library: 7-deaza-guanosine replaces G
Target: Ras GTPase-activating protein-binding protein 1, full length (G3BP1, Homo sapiens, UniProt Q13283)
Chain of UniProt Q13283 (whole entry, looked up): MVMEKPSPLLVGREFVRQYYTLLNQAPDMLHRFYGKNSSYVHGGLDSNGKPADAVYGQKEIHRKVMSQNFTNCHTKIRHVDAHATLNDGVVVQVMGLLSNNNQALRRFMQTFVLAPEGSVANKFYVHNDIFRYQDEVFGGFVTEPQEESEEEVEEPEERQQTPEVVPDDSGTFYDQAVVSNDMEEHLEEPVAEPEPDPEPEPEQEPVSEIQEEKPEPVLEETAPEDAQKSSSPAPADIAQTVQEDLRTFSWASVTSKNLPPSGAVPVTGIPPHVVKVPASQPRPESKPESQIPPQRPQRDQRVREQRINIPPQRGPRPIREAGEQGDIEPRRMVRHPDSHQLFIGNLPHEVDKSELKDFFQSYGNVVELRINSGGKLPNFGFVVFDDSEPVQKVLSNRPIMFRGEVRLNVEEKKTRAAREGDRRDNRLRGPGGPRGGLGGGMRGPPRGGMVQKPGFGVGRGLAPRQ
Constant ends, left off below: GGGAGUUCUACAGUCCGACGAUC … UGGAAUUCUCGGGUGUCAAGG
| Sequence | log2 enrichment |
| --- | --- |
| CCUCAAGUCCUGUGCUACACAUCGUAUGUACCGAAUCGGGGAGGAGGGAGGGAAAGUAUUAUGUUACGCCGUUCGGAUCUGCACUUCCAG | 0.51 |
| CGCAGACAACACGCACCCACACAGACACAGAGGGAAGGGGUUGGGAUGGGGACAGGGUGCACAGCAGGGCGGGGUAGGACCCCAGCCCCU | 0.293 |
| CACAGACAACACGCACCCACACAGACACAGAGGGAAGGGGUUGGGAUGGGGAGAGGGUGCACAGCAGGGCGGGGUAGGACCCCAGCCCCU | -0.0867 |
| AAGUCCUGUGCUACACAUCGUAUGUACCGAAUCGGGGUUUGGGGUUUGGUUUGGGGAAAGUAUUAUGUUACGCCGUUCGGAUCUGCACUU | -0.517 |
| CCUCAAGUCCUGUGCUACACAUCGUAUGUACCGAAUCGGCCGGCCGGGGCCGGAAAGUAUUAUGUUACGCCGUUCGGAUCUGCACUUCCA | 1.26 |
| UGGCCCUGGUGGCAUGCGGGGAGGAAGAGGUGGCCUCAUGGAUCGUGGUGGUCCCGGUGGAAUGUUCAGAGGUGGACGUGGUGGAGACAG | -0.192 |
| CUGUGCUACACAUCGUAUGUACCGAAUCAAAGUGUGUGUGUGUGUAAAGUGUGUGUGUAAAAAAGUAUUAUGUUACGCCGUUCGGAUCUG | -1.32 |
| CACAGACAACACGCACCCACACAGACACAGAGGCAAGGGGUUGGGAUGGGGACAGGGUGCACAGCAGGGCGGGGUAGGACCCCAGCCCCU | 0.815 |
| UCCUCAAGUCCUGUGCUACACAUCGUAUGUACCGAAUCGGAGGAGGAGGGGAAAGUAUUAUGUUACGCCGUUCGGAUCUGCACUUCCAGC | -0.808 |
| CACAGACAACACGCACCCACAUAGACACAGAGGGAAGGGGUUGGGAUGGGGACAGGGUGCACAGCAGGGCGGGGUAGGACCCCAGCCCCU | 0.282 |
| UAACUUUAGAGGAGGAUCUGAUGGAUAUGGCAGUGGACGUGGAUUUGGGGAUGGAUAUAAUGGGUAUGGAGGAGGACCUGGAGGUGGCAA | 0.579 |

Set 3 — technique: RNA Bind-n-Seq; molecule type: RNA; matrix: in vitro; tested at: 365 nM; baseline: no-protein control; direction: higher = stronger binding
Target: RNA binding protein fox-1 homolog 2, RRM domain, GST-SBP tag (RBFOX2, Homo sapiens, UniProt O43251-10, residues 100-194)
Notes: natural RNA segment, single round, ends assumed
Constant ends, left off below: GGGAGUUCUACAGUCCGACGAUC … UGGAAUUCUCGGGUGCCAA
| Sequence | RBNS enrichment (R) |
| --- | --- |
| AUCACUUUUACAGAAAACAAGGUCCAGUAAUAGCAAGUCUUAGUACAUCCUCACUUUUAUUAUAAAUGGGUGUUUUUUCAUAAUUUUUACUGACGCUCAGUAACCAUGCA | 1.6 |
| GAGAGCAGUUGUGGUGUUUGUAUACCUUGUGCCUUAUGAUCAAGGUGGGCCUUGGAGGAGGGCGGGAAAGGAGCGACCAACAUGGCGGUCCUCCACCCCUCAGCGACACC | 0.603 |
| ACUAGAGGUUCCCUUUGCAUGUUGCACUCUGUUCUCAUUUGGAGAUUGAACUCUGAAUUAACACAGUAUUCAUUCAUCUGUGUUAUUUUGUAAAAAUAACUGUAGCUUAU | 21.7 |
| CUUCAGUGAAUAUGUGACUAGUAAAGCUUAAAUAUGUUUGGAUCUAAUAGAGCUCAUGAAAUACUGUAACUUGGGGAUUGUAAAUGAAUGGAUACAAUAGGUUAAGGCCC | 3.13 |
| GUUCAUUUGUCAUAUAGGCACUGGGUUGUUUCUAUAUCAUCAUCGUCUAUAAACUAGCUUUAGGAUAGUGCCAGACAAACAUAUGAUAUCAUGGUGUAAAAAACACACAC | 0.487 |
| CGGAGGUGGGGAAGAACUACUUUCGAGAAUUGUUACGGAGGCAGGUUGAGGGGACACUUUGACCCUCCAAGGUAACAGCCAGUCAGAUGGCUUGAGGUGCCUGGCCCAUG | 0.375 |
| UUACUACAAAGAUUUGCAGAUCUUUAAUCAAGCACUAUGUUAAUACUGUAAUAUCAAAAUACUAUGUCGAAUUAUUUCAGAUGUUCAGAUUGAAUAGGGUAAAAGAAAGU | 0.635 |
| AUUGAUCUCAGAUAAAAACUUGUGGACUUGGCUGACACUCUCCCUUGCCCUGAAAUCUCAAUGUCUAUUCAGUGAUAGUACAAGCACGUAGAUACCACUUAGUAUACUAU | 0.862 |
| GAAUGUAAUACUCAAACUCUCAGUGCUUCCUUAUAAUUUCUAAUAGAAUUUUUUAUUAUUGUUAUUAUUAUUGGGGUUUUUUUGGUUGGUUGGUUGGUUGGUCGGGUUUU | 1.05 |
| GUGGAGACCCUUAAAUCCACACUGUGCUCCAAAACUCCCUCUGCUGAUACUCCUUGGAGACACCCUCUUUGGCCCUCACUACUUGACCAGACUGGUACUUGAGUCCUUCU | 0.636 |
| UUAGAGGGAUGAGAGUUCCCAUUAAGCACUCCAUGCAAUGGCCUCUCACUGUUUAAAGAACACACUUUUGAGAUUAUGUGGUCCUAUCCUUGUUUUAAUGAUUAAAAAAA | 0.588 |
| UCCUGAGAUAACAUUUGCAUUGUCGACCUCAGUUGACUGUUUUUACAAUAAAAAUAUUUUGCAGCUUUUUCCUGUGUUUUUAUAUUGUAAUUGAAUAUUUUCUUCCUUUU | 0.738 |

Set 4 — target: UBE2H UBC core domain (UniProt P62256); technique: yeast two-hybrid; matrix: yeast; notes: mostly zero background; baseline: not given; direction: higher = stronger interaction
Chain of UniProt P62256 (whole entry, looked up): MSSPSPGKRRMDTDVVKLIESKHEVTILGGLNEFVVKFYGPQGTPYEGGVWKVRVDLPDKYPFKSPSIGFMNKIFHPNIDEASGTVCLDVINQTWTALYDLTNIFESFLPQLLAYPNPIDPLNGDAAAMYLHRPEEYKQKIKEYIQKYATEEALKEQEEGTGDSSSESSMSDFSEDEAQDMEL
B1: ARIH2 RING domain (UniProt O95376); chain HVPTSHPPHHCAVCMQFVRKENLLSLACQHQFCRSCWEQHCSVLVKDGVGVGVSCMAQDCPLRTPEDFVF
B2: MKRN3 RING domain (UniProt Q13064); chain FAVQRGMDKVCGICMEVVYEKANPNDRRFGILSNCNHSFCIRCIRRWRSARQFENRIVKSCPQCRVTSELVIPSE
B3: RING1 RING domain (UniProt Q06587); chain SPRSLHSELMCPICLDMLKNTMTTKECLHRFCSDCIVTALRSGNKECPTCRKKLVSKRSLR
B4: NFX1 RING domain (UniProt Q12986); chain IEQLTTEKYECMVCCELVRVTAPVWSCQSCYHVFHLNCIKKWARSPASQADGQSGWRCPACQNVSAHVPNTY
B5: VPS8 RING domain (UniProt Q8N3P4); chain TRGLNPKQDYCSICLQQYKRRQEMADEIIVFSCGHLYHSFCLQNKECTVEFEGQTRWTCYKCSSSNKVGKLSE
B6: TRIM41 RING domain (UniProt Q8WV44); chain PVQTLQEEAVCAICLDYFTDPVSIGCGHNFCRVCVTQLWGGEDEEDRDELDREEEEEDGEEE
B7: CNOT4 RING domain (UniProt O95628); chain MSRSPDAKEDPVECPLCMEPLEIDDINFFPCTCGYQICRFCWHRIRTDENGLCPACRKPYPED
B8: MARCHF1 RING domain (UniProt Q8TCQ1); chain TAPRSQSRLSVCPSTQDICRICHCEGDEESPLITPCRCTGTLRFVHQSCLHQWIKSSDTRCCELCKYDFIMETKLKPLRKWE
B9: RNF6 RING domain (UniProt Q9Y252); chain NSIDSELGKICSVCISDYVTGNKLRQLPCMHEFHIHCIDRWLSENCTCPICRQPVLGSNIAN
B10: MID2 RING domain (UniProt Q9UJV3); chain KMETLESELTCPICLELFEDPLLLPCAHSLCFSCAHRILVSSCSSGESIEPITAFQCPTCRYVISLNHRGL
| Sequence | lacZ reporter activity |
| --- | --- |
| B1 (ARIH2 RING domain) | 0 |
| B2 (MKRN3 RING domain) | 0 |
| EIKEYKARLTCPCCNTRKKDAVLTKCFHVFCFECVRGRYEARQRKCPKCNAAFGAHDFHR (RNF40 RING domain (UniProt O75150)) | 0 |
| ASEEEFQFLRCQQCQAEAKCPKLLPCLHTLCSGCLEASGMQCPICQAPWPLGADTP (PML RING domain (UniProt P29590)) | 0 |
| B3 (RING1 RING domain) | 0 |
| B4 (NFX1 RING domain) | 0 |
| DDVLTKDAGECVICLEELLQGDTIARLPCLCIYHKSCIDSWFEVNRSCPEHPAD (ZNRF1 RING domain (UniProt Q8ND25)) | 0 |
| B5 (VPS8 RING domain) | 0 |
| B6 (TRIM41 RING domain) | 0 |
| B7 (CNOT4 RING domain) | 0 |
| ASPKIFQKTKCSICNSALELPSVHFLCGHSFHQHCFESYSESDADCPTCLPENRKVMDMI (VPS11 RING domain (UniProt Q9H270)) | 0 |
| B8 (MARCHF1 RING domain) | 0 |
| B9 (RNF6 RING domain) | 0 |
| FAEQPSVKLCCQLCCSVFKDPVITTCGHTFCRRCALKSEKCPVDNVKLTVVVNNI (TRAF7 RING domain (UniProt Q6Q0C0)) | 0 |
| B10 (MID2 RING domain) | 0 |

Repeated from above (set 1):
| Sequence | log fluorescence |
| --- | --- |
| TGAGGTTCCCTTTTCCTTTAGTGCTAG | 3.01 z-score |
| GACGGTTTGGGGACTGGGGACGTGCTA | -0.342 z-score |
| ATAGGTATCCTTATCCTTTAGTGCTAG | 0.519 z-score |
| AGCTACTGAGTGGCAACACAGTGCTAG | -1.02 z-score |
| TCATTTTTCACTATTGCACTGTGCTAG | 1.37 z-score |
